Measured values from different studies.
Each numbered part is a random draw from the data of one study; scales do not carry over between parts. Positions count from the first letter of the parent shown.

Block 1
Target: ABI1, truncated, D143A, DHFR fusion (Arabidopsis thaliana)
Technique: DHFR PCA, deep sequencing
Matrix: yeast
Setting: methotrexate growth selection, single substitutions
Together with: (+)-ABA 0.0091 µM
Baseline: wild-type fitted maximum
Direction: higher = stronger binding
Starting sequence: PYL1, truncated, DHFR fusion (Arabidopsis thaliana); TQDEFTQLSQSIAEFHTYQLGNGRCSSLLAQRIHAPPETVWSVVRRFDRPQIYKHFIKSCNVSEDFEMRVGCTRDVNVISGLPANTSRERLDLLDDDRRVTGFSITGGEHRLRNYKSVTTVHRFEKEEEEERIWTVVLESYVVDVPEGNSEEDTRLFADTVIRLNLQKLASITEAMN
Variant	relative binding score [%]
V137I	-4.09
E139I	-6.35
C25D	-1.83
D95V	-7.93
F56Q	1.02
A84T	24
S9Q	50.1
S59G	5.89
P83Y	5.33
L91R	-0.672
L93I	56.2
G148C	6.06
D75R	5.84
H34V	1.6
I162S	-1.43
L156H	3.93

Block 2
Target: CCNF, cyclin fold, Cln2 fusion (human)
Technique: yeast growth competition, sequencing
Matrix: yeast
Setting: strong parent motif
Baseline: not given
Direction: higher = stronger binding
Starting sequence: WEE1 docking peptide (human); HKTFRKLRLFDTP
Variant	normalised enrichment score
HKTFRKLRLFGTP [D11G]	0.942
HKKFRKLRLFDTP [T3K]	1.24
HKMFRKLRLFDTP [T3M]	1.71
HKTFRKLQLFDTP [R8Q]	2.75
VKTFRKLRLFDTP [H1V]	1.61
HKTFRKLRLFDTV [P13V]	2.62
HKTFRKLRLFITP [D11I]	2.1
HKTLRKLRLFDTP [F4L]	1.49
HATFRKLRLFDTP [K2A]	2.05
HKTFRKLRLFRTP [D11R]	2.21
HKTFRELRLFDTP [K6E]	0.792
HKTFKKLRFFDTP [R5K L9F]	1.37
HYTFRKLRLFDTP [K2Y]	2.02
HKTFQKLRLFDTP [R5Q]	1.6
HKTFRKLRLMDTP [F10M]	1.4
HKTFRKLRLHDTP [F10H]	1.24
HKTFRKIRLFDTP [L7I]	2.83
HKTFRKLNLFDTP [R8N]	2.76
HKTFRQLRLFDTP [K6Q]	2.21
HITFRKLRLFDTP [K2I]	1.55
HKTFRKLRLFVTP [D11V]	2.43
HKTFRKLRLFDTH [P13H]	1.36
HKLFRKLRLFDTP [T3L]	1.92
HKVFRKLRLFDTP [T3V]	3.81
HKTVRKLRLFDTP [F4V]	2.95

Block 3
Target: Histone acetyltransferase KAT6A, both winged helices, GST fusion (KAT6A, Homo sapiens, UniProt Q92794, residues 1-181)
Technique: protein binding microarray
Molecule type: double-stranded DNA, one strand shown
Matrix: in vitro
Tested at: not given
Setting: 8-mer, flanks averaged, mean of 2 arrays, mostly near background
Baseline: not given
Direction: higher = stronger binding
Residues (chain): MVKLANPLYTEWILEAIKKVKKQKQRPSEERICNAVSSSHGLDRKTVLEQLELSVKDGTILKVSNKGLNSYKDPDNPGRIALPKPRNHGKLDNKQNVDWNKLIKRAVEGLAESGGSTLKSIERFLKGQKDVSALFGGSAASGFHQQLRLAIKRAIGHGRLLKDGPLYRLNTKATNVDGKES
Sequence	E-score
AACATAGT	-0.0332
ATTAGCTA	-0.133
ACACCACT	-0.152
AAATCTAA	-0.116
ACCTAACA	-0.115
AACATGGA	0.0159
ATGGGCGA	-0.0562
CTAGCGGA	0.192
CCTGTTCC	-0.0539
TCGAATAA	-0.0962
AATCTGAT	-0.00684
AATGAGAG	-0.0909
AACTCCAT	-0.073
CGACAAGA	0.0248
CCTCCATA	-0.0551
CCGACAGA	0.104
CAGCTTAC	0.0361
GATGCTGC	-0.0277

Block 4
Target: Centromere-binding protein 1, full length, N-terminal tag (CBF1, Saccharomyces cerevisiae, UniProt P17106, residues 1-351)
Sequence of UniProt P17106 (whole entry, looked up): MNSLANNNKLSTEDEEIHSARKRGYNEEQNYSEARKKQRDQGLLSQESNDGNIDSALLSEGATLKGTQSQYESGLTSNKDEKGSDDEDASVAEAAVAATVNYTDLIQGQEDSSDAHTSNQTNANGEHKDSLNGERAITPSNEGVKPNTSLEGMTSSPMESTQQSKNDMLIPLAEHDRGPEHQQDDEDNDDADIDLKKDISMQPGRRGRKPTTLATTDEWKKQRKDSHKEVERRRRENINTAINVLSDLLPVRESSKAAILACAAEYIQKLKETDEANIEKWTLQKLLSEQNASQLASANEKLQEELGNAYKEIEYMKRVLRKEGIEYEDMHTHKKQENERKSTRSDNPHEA
Technique: protein-binding microarray
Molecule type: double-stranded DNA, one strand shown
Matrix: in vitro
Tested at: 0.8 µM
Setting: whole 60-bp probe, no competitor
Direction: higher = stronger binding
Sequence	fluorescence intensity
GAAAGGCAAGGCTGCGGCATCATGTCTACTTGTTAGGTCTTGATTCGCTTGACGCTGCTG	497 a.u.
GAAACCTCAATTGATCACATCGTCTCGCCGTACTAGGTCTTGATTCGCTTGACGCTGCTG	527 a.u.
GAAGCCAAGCGCCGTCACCCTTTCATATTAAAATAGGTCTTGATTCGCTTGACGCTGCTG	491 a.u.
CTACATAGTGGTTACCACCAGATCCCGATGGAATTCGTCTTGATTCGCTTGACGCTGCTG	485 a.u.
GAAAGAACCACTGACTTCGTGGTGCGTTCGTTTTAGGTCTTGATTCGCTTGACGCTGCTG	519 a.u.
CTATTGAGAAAACAACACGTTTACTTGTAGAGTTTCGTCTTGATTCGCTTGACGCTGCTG	576 a.u.
CTATGGAGGTCTACACACGTTAATAGTCTCAAATTCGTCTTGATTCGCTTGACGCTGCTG	532 a.u.
CTACCGCACACGTGTCACGTGATAAGCACTCTTTTCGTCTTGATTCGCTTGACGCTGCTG	36500 a.u.
GAAAATATACGGTGTCACCTCCTACTTTTTCCTTAGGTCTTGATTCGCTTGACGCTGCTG	493 a.u.
GAATGTTAAGATTACATCAGCACTAACAAACAATAGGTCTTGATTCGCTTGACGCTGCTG	565 a.u.
CTAAAAAATTTCCCTCACGAGAATATGGAAATTTTCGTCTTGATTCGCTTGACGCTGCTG	588 a.u.
TGTACGAAGCTATAGCACGATTGTATAGTAGTTAGGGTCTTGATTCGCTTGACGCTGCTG	523 a.u.
CTATTGAGAACCAGTCATCAGACTAATGAAAGCTTCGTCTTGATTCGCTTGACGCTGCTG	566 a.u.
CTAGTAATAAAAAAATTCATGATGCTATGTCCATTCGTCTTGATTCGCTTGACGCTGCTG	515 a.u.
CTAACATCTACAGTCCACCTGCCCCTTCCTTCGTTCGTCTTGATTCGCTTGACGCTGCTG	528 a.u.
CTATAGTATAAGAATCACATGTTTTCCATTCTTTTCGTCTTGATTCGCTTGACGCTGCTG	2060 a.u.
TGTACGAAGCTATACGTCATCAGTATAGTAGTTAGGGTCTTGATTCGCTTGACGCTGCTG	1590 a.u.
GAATTTCTTGCCTTATACACCACCTATTCTGGCTAGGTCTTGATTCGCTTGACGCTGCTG	510 a.u.
GAATACTGATGACAGCAGGTGTATTATTAATACTAGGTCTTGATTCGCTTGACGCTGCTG	582 a.u.

Block 5
Target: MAFG, bZIP domain (human)
Technique: DHFR protein complementation
Matrix: yeast
Setting: single substitutions, most at no-binding floor
Baseline: wild-type JUN-FOS pair
Direction: higher = stronger binding
Starting sequence: JUN, bZIP domain (human); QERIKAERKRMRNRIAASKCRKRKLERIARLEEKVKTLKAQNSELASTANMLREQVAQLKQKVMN; partner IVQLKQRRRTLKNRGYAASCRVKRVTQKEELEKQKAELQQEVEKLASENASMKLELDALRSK
Variant	binding fitness [natural log]
I28E	-1.56
A49I	-1.37
A49Y	-1.38
A29K	-1.45
T48D	-1.41
L31G	-1.45
V35L	-1.3
L38D	-1.5
L45N	-1.42
N42R	-0.891
N42W	-1.44
R30M	-1.28
Q41W	-1.48
K34C	-1.41
R30G	-1.35
L38K	-1.47
K34A	-1.49
K39W	-1.51
R30H	-1.56
K39H	-1.52
T48K	-1.5

Further values, each from its own experiment
Substance	target	test	test system	conditions	scale	quantity	result
PhoQ, residues 284 288 289 292 302 303 SVTLVV	PhoP, residues 12 14 15 18 19 LHSVW (Escherichia coli, UniProt P23836)	Sort-seq, measured: YFP reporter	E. coli	PhoQ-PhoP variant library, together with: 10 µM Mg2+	baseline: high Mg2+ state, higher = stronger signaling	fold induction	2.98

For quick reference, copied from above (block 4):
Sequence	fluorescence intensity
CTAGTAATAAAAAAATTCATGATGCTATGTCCATTCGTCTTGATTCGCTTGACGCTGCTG	515 a.u.
CTAACATCTACAGTCCACCTGCCCCTTCCTTCGTTCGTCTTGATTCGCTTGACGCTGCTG	528 a.u.
CTATAGTATAAGAATCACATGTTTTCCATTCTTTTCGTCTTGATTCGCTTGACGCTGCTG	2060 a.u.
TGTACGAAGCTATACGTCATCAGTATAGTAGTTAGGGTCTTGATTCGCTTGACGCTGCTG	1590 a.u.
GAATTTCTTGCCTTATACACCACCTATTCTGGCTAGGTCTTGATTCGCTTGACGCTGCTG	510 a.u.
GAATACTGATGACAGCAGGTGTATTATTAATACTAGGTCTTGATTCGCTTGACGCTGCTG	582 a.u.
